Published values pooled from the literature.
Numbered parts are unrelated; each lists some results of a single study. Values joined by “and” are separate records of one study, mostly repeats; a detail may differ.
Sequence of UniProt P46098 (whole entry, looked up): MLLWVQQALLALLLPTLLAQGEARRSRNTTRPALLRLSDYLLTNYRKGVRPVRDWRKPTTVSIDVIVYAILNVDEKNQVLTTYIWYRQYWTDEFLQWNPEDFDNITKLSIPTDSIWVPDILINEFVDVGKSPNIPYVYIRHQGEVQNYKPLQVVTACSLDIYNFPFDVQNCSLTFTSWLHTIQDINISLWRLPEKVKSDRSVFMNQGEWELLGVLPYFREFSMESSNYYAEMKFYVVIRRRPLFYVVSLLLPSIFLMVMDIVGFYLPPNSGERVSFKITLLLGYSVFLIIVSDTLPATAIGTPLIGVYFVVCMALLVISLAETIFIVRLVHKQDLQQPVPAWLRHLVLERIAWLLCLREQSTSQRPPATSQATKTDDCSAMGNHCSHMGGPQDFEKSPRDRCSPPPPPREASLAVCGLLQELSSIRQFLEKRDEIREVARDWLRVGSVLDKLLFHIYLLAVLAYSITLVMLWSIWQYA
Sequence of UniProt P41595 (whole entry, looked up): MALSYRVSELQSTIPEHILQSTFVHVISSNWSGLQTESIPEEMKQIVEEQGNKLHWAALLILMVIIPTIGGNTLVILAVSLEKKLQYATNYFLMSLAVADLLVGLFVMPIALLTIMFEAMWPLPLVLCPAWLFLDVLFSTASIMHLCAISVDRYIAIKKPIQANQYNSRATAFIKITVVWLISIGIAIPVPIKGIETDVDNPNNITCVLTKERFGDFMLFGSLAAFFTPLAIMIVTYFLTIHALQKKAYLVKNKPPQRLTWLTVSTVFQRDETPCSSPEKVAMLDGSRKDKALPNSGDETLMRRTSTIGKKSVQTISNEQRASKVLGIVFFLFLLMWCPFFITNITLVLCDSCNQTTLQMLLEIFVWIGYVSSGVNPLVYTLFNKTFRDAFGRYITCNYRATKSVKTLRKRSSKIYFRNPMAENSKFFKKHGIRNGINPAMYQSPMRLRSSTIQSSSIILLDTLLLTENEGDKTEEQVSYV
Sequence of UniProt P28221 (whole entry, looked up): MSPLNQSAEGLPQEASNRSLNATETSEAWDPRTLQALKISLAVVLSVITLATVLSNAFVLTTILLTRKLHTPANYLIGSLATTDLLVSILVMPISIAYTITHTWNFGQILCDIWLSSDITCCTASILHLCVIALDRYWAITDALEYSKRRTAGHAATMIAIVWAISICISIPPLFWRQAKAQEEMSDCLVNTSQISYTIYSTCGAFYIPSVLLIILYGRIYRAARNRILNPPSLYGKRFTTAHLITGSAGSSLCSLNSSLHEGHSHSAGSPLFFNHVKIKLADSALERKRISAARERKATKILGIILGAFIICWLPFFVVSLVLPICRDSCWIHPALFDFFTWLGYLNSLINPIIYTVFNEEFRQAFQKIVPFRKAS

Sample 1
Target: Calcium/calmodulin-dependent protein kinase type II subunit alpha (CAMK2A, Homo sapiens, UniProt Q9UQM7)
Sequence of UniProt Q9UQM7 (whole entry, looked up): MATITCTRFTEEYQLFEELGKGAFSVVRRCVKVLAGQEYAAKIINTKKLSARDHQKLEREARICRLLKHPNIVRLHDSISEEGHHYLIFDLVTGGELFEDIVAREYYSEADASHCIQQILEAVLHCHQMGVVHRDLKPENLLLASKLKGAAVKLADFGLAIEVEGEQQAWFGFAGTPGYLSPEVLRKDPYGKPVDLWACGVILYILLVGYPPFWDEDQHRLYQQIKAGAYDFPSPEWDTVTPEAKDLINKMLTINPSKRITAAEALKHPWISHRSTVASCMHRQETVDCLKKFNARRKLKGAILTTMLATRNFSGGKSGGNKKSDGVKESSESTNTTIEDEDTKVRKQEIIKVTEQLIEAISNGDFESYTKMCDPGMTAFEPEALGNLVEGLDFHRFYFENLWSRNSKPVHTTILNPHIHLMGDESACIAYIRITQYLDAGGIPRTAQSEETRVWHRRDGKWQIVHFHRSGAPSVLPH
Read-out: enzyme activity
Mode: inhibitor
Tested at: 10 µM
Endpoint: inhibition
CCC1(c2ccccc2)NC(=O)N(C)C1=O (stereo not shown): -7%
COc1ccc([C@H]2OC[C@H]3[C@@H]2CO[C@@H]3c2ccc(OC)c(OC)c2)cc1OC: -0.16% and -0.12%
COC(=O)N[C@H](C(=O)N1CCC[C@H]1C(=O)Nc1ccc([C@@H]2CC[C@@H](c3ccc(NC(=O)[C@@H]4CCCN4C(=O)[C@@H](NC(=O)OC)C(C)C)cc3)N2c2ccc(C(C)(C)C)cc2)cc1)C(C)C: -2%
COC(=O)/C=C/c1ccc(O)c(O)c1: 23%
COc1cc(O[C@@H]2O[C@H](CO[C@@H]3O[C@H](CO)[C@@H](O)[C@H](O)[C@H]3O)[C@@H](O)[C@H](O)[C@H]2O)c2c(O)c3c(=O)cc(C)oc3cc2c1: -43%
CCCCC/C=C\C/C=C\CCCCCCCC(=O)O[C@H]1CC[C@@]2(C)C(=CC[C@H]3[C@@H]4CC[C@H]([C@H](C)CCCC(C)C)[C@@]4(C)CC[C@@H]32)C1: 20%
C[C@H]1CC[C@@H](C(C)(C)O)CC2=C1CC[C@@H]2C: -43%

Sample 2
SMILES: CNC(=O)Nc1ccc2c(c1)[C@]1(CC2)OC(=O)N(CC(=O)N(Cc2ccc(F)cc2)[C@@H](C)C(F)(F)F)C1=O
Read-out: binding
Method: radioligand binding
Tested at: 10 µM
Endpoint: inhibition
5-hydroxytryptamine receptor 2B (HTR2B, Homo sapiens, UniProt P41595): 29.2%
5-hydroxytryptamine receptor 3A (HTR3A, Homo sapiens, UniProt P46098): -13%
5-hydroxytryptamine receptor 1D (HTR1D, Homo sapiens, UniProt P28221): 2.22%

Sample 3
Host: human
Matrix: microsomes or S9
Tested at: 2 µM
Time: 0.5 h
Endpoint: remaining compound
COc1cc(C2c3c(-c4ccccc4)nn(C)c3C(=O)N2Cc2ccco2)cc(OC)c1O (stereo not shown): 9.03%
CCCNS(=O)(=O)c1cc(N2CCCCS2(=O)=O)ccc1OC: 78.4%
Cc1cc(-c2nnc(Cn3cnc4c3c(=O)n(C)c(=O)n4C)o2)c(C)o1: 70%
Cc1ccccc1Cn1c(=O)n(Cc2ccc(F)cc2)c(=O)c2nccnc21: 108%
Cc1nccc(CNc2c(C#N)cnc3c(F)ccc(Cl)c23)n1: 12.7%
Cc1ccc(S(=O)(=O)n2cc(Br)c3c(N4CCC(O)CC4)ncnc32)cc1: 38.7%
COc1nc(NCCc2c[nH]c3ccccc23)nc(Nc2ccc3[nH]ncc3c2)n1: 22.9%
COc1cc(OC)nc(Oc2ccc(OC(C)C(=O)O)cc2)n1 (stereo not shown): 40.8%

Single results of other studies
CCCN1C(=O)[C@H](CC(C)C)NC(=O)[C@@H](N(C)C(=O)[C@H](CC2CCC2)NC(=O)[C@@H]2C[C@@H](F)CN2C(=O)[C@@](C)(O)C(F)(F)F)CCCCNC(=O)C2(CC2)NC(=O)[C@@H]1Cc1cc(Cl)ccc1Cl — tumour volume (mouse NCI-H1048 xenograft; iv, 100 mg/kg once daily, day 14): 418 mm3 and 551 mm3 and 427 mm3 and 539 mm3 and 654 mm3 and 639 mm3 and 449 mm3 and 448 mm3

Excerpt of the above (sample 3):
Cc1ccccc1Cn1c(=O)n(Cc2ccc(F)cc2)c(=O)c2nccnc21: 108%
